Assay results collected from several papers.
Parts stem from different laboratories: compare values within a part only.

Sample 1
Target: RNA binding protein fox-1 homolog 2, RRM domain, GST-SBP tag (RBFOX2, Homo sapiens, UniProt O43251-10, residues 100-194)
Method: RNA Bind-n-Seq
Form: RNA
Medium: in vitro
Tested at: 365 nM
Setting: natural RNA segment, single round, ends assumed
Baseline: no-protein control
Reading: higher = stronger binding
All sequences stand within: GGGAGUUCUACAGUCCGACGAUC … UGGAAUUCUCGGGUGCCAA
Oligonucleotide	RBNS enrichment (R)
AUCAUCUUCCUAGGCAGUCUCUUCCCCAAAGUCUCACCUUUUCUUCCAAUAGAAAAUUCCGCUUGACCUUUGGUGCACUGCCCACUUCCCAGCUCCACUGGCCCAAGUCU	0.402
GUGAAUAAUAAGUAAAUAGUCUGAUGACCCUCUUAAUAGCAUUGCAAUUGUAUUGAAUCACAUAAUGAUUCAUAAGUAACUAGGGAACCAACUGAUUUUGCUAAGCAGUC	1.41
UGUCUCCAUCCCCAUGCCUUGUUCUAACUUGCAUACUUGUCCUUUCUGCUCGAAGCUGUCACUUCCUUCUAAGGAUUUACAGAGGCCUAGGGCCCUAACCUUCAGGGGUG	0.791
UCCCUUCCCGGCACGUGGAUUUUUUUUUUCAGUUUGUUAGAAGCCAGUGUAUGUCUUAAGCCUCUGCAAAAAAAAAAAAAAAUUGUUAGAUAAUGAUCCUAAAAGUGUUC	1.94
CUUCCUUAGAGCCUGAGUGGUGUGAGGUGACAGGUCUCUCUCUCCACUGCCCCUUUCUGGUUUAAAAAAAUGGUGCUUGAUGAGGGAAGGUAGACUCUUCCCUAGGACUG	0.498
GAAAAUUGAUGGGGUUUAAAGCUACAGAGGCACUGACCUUUUUCUAGUUAUUGUAUUGCUACAAUUUAAAUAUUAAAACAAAUAAGAGCUUUCUCAACAAAUUAGUCCAU	0.388
AUUUUUCUUCUAUUUAACGGAAAACUUGACUUUGGUGAAUGUGCAUUACUUCCUUUUAUUUUGCUCUUUAAAUAAUAAAAUUCAAGAAGCAUAUUCUAUGUGGAAUAGAU	1.11
GGAGACAGGACAAGCCUUUCAUCUAAAAGGUGGCACAGAGCUUAAGGCCAGGGAAGAAGGUAUGAAGAAAAGGUGAUUGAGAACUAAUUACCAAGGGAAACUGGCAAGAC	0.782
AGAGAAGCCAUCUCUCAAGAGGCAAAUAGCAUGAUCUACAUAGUUAAUACAUCUACCUUCCCUUAUACUUUCUUCUAAGGCCUGAUUUUCUUUGCUUGGGAAGUGGAUUA	0.948

Sample 2
Target: Interferon regulatory factor 7, full length, phosphomimetic (IRF7, Homo sapiens, UniProt Q92985, residues 1-503, S471D/S472D/S475D/S476D/S477D/S483D/S484D/S487D)
Method: protein-binding microarray
Form: double-stranded DNA, one strand shown
Medium: in vitro
Tested at: 2200 nM top
Setting: 60-bp whole probe
With: salmon DNA 0.4 mg/ml
Baseline: random background probes
Reading: higher = stronger binding
All sequences stand within: GCCTAGCAC … GTCTTGATTCGCTTGACGCTGCTG
Residues (chain): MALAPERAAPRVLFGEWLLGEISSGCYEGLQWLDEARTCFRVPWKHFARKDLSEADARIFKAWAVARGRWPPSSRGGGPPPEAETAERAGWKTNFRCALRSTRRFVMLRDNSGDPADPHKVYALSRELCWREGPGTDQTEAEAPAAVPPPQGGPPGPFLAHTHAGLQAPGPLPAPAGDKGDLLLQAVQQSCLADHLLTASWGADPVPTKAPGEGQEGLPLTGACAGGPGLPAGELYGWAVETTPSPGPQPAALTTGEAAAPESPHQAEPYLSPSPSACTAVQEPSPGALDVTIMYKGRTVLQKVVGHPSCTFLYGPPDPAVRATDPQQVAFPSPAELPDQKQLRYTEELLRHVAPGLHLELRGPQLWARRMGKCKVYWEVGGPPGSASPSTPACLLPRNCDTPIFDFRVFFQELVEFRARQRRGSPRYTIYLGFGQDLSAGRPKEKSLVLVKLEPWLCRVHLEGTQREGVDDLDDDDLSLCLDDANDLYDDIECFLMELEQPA
Oligonucleotide	fitted relative affinity [z-score]
TCATTTTTCTGATTGAAACTGTGCTAG	3.27
TTACGTATCCTTATCCTTTAGTGCTAG	2.5
GACGTACTGAGTCTCGAGACGTGCTAG	0.285
TTAGAACCGAGTTTCGATTAGTGCTAG	4.2
TTAGGATTGGACTTTCGGTTAGTGCTA	5.18
TTAGATATCAGACTGGATTTGTGCTAG	-0.159
AACTCTCTAATTTTGAGACTGTGCTAG	-0.0285
GACGGTCTCGGTATCGGGAAGTGCTAG	0.194
GACGGACTGGGGACCGGGGACGTGCTA	-0.792
TTAGGTTTCGACACTGGGGTAGTGCTA	2.27
TTTACTCTCTACATGGGTATGTGCTAG	1.33
GACGGAATCGACTATCGGGACGTGCTA	0.111
TCAAATTTCCCTCTGCTACTGTGCTAG	1.56
GCTTTTATGGTATTTTTTTCGTGCTAG	1.81
GACAATATCAGTATCGAGACGTGCTAG	0.338
GACGTTTTCGGGACTGGGGACGTGCTA	3.33
TTAGATCTCGGTTTCGGTTAGTGCTAG	6.63
GACGGACAGGGTTTCGGGACGTGCTAG	0.521
TCAGAACTCAACTGTCTGACTGTGCTA	0.158
TTAGGTATCCTCATCCTTTAGTGCTAG	0.905
TCAGTTTTCTCCATGGAACTGTGCTAG	1.66
ATTTTTTTATCAATCATTTTGTGCTAG	0.878
GTAGGTATCCTTCTCCTTTAGTGCTAG	1.32
TTAGGTTTCCTTATCCTTGAGTGCTAG	1.78
GACGGTCTCGTTCTCGGGACGTGCTAG	0.347

Sample 3
Target: Histone acetyltransferase KAT6A, winged helix 2, GST fusion (KAT6A, Homo sapiens, UniProt Q92794, residues 85-181)
Method: protein binding microarray
Form: double-stranded DNA, one strand shown
Medium: in vitro
Tested at: not given
Setting: 8-mer, flanks averaged, mean of 2 arrays, mostly near background
Baseline: not given
Reading: higher = stronger binding
Target sequence (chain): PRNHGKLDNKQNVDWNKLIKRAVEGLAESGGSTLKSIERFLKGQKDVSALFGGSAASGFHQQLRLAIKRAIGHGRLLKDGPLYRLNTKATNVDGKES
Oligonucleotide	E-score
CAGACGAG	0.0449
AGCCGATG	-0.0639
AGCAAGAG	0.0612
AACACGTG	-0.202
AAGTTTGG	0.16
GGTAGTCA	-0.213
AGCCGCGA	0.0711
CCATTTGA	-0.0657
ATAATACC	0.0105
CTTTACTC	-0.147
AGGGCTAC	-0.12
CGTAGCAC	-0.000115
ATTAAAAA	0.197
AATTCGAT	0.0891
CAAAATCC	0.0852
GCCCTTAA	0.111
AAGTTTAG	0.146
AATAAACT	0.0757
GGTCCGGA	0.15
CACTGCTG	-0.00095
GCGGAACA	0.0242
GGGGCAAC	0.193

Sample 4
Target: Centromere-binding protein 1, full length, N-terminal tag (CBF1, Saccharomyces cerevisiae, UniProt P17106, residues 1-351)
Sequence of UniProt P17106 (whole entry, looked up): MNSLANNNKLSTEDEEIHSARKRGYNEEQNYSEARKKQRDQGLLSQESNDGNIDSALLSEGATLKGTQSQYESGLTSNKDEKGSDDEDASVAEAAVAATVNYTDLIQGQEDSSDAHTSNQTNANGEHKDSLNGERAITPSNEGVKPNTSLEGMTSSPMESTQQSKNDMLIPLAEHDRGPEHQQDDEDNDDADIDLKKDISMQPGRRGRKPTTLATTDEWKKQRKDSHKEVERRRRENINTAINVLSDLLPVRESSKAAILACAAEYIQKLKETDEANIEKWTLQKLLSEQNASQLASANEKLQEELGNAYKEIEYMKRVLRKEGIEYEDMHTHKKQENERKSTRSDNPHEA
Method: protein-binding microarray
Form: double-stranded DNA, one strand shown
Medium: in vitro
Tested at: 0.8 µM
Setting: whole 60-bp probe, no competitor
Reading: higher = stronger binding
All sequences stand within: … GTCTTGATTCGCTTGACGCTGCTG
Oligonucleotide	fluorescence intensity [a.u.]
GAATCTAATAGGAGTCACGTGGTTCCATCGTTTTAG	20200
CTATCCTCTCAGTCTCACGTTTCTATGCGGGTCTTC	651
CTAAATTTTATGCGTCGGGTGACTTCAATTTGGTTC	876
CCTAACTACTATAATCACGTTTAATAGCTTCGTACA	920
CTAGTAATAGATATTCACATGTAAAAAAAGGTATTC	658
GAAGTTTCGCCCATTCATCTGACAGGACAGAATTAG	539
GAAAAAGGAGCATAGAACGTGGGGCAATTTACATAG	552
CTACGAGAAAAGTATTCTGATGTCCAATTCTTCTTC	511
CCTAACTACTATAATCATGATCTATAGCTTCGTACA	547
TGTACGAAGCTATGTTCTGATGTTATAGTAGTTAGG	536
CTATCACAAATAGATCACATGATATATTTTTTATTC	6350
CCTAACTACTATAATGACGTGGAATAGCTTCGTACA	484
CTAATTGTGCAGGTTCAGCTGATGTATAGGCTGTTC	559
CCTAACTACTATAGAGTCATGAGATAGCTTCGTACA	564
GAATGACGCCGGTCACACGCGGGTGCCTGATTCTAG	689
CTATTAAAGAGGTGCTGCGTGGTGTAGAAAAGGTTC	578
CTATACCTTTTTCATCATGATATGAATTGATACTTC	536
GAATTGAGGAAATATCAGGTGTGCCAATACGTTTAG	599
GAAGAATGTTCATACGTGATTATAAGAATCGAGTAG	624
TGTACGAAGCTATAGGCCGTGACTATAGTAGTTAGG	590
CTATAAACTCTCGAGGATCTGATGTTGATTTTTTTC	483
GAATAACACATTGGTAGTGTGACTACTAGTTGATAG	717
GAAACAAATTTGACACACATGATTGAATCATTATAG	950
GAATGTGGTGGGTGTGGTGTGGTGTGTGTGGGTTAG	516
